# Measured values gathered from unrelated publications.
# Each numbered part is a random draw from the data of one study; scales do not carry over between parts. Several values in a cell are separate wells, animals, samples, runs or records.
# Chain of UniProt P51617 (whole entry, looked up): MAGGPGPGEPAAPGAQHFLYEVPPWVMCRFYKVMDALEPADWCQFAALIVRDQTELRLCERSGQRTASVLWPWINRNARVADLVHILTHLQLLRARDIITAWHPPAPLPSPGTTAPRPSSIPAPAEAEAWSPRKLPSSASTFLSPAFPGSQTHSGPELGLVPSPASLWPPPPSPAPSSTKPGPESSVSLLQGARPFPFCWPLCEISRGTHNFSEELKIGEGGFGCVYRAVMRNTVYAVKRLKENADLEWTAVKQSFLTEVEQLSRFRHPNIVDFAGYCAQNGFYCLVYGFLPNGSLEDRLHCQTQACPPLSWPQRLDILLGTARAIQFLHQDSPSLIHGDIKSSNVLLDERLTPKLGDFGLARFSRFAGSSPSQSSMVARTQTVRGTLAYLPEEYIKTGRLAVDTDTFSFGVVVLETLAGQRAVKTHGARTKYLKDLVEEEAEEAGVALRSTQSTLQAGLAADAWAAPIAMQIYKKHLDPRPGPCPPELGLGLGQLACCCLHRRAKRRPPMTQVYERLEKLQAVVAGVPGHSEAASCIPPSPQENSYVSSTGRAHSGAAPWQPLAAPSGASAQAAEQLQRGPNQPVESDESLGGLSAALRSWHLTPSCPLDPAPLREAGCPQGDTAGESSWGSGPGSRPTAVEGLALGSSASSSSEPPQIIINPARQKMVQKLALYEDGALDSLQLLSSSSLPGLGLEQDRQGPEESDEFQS
# Chain of UniProt Q13163 (whole entry, looked up): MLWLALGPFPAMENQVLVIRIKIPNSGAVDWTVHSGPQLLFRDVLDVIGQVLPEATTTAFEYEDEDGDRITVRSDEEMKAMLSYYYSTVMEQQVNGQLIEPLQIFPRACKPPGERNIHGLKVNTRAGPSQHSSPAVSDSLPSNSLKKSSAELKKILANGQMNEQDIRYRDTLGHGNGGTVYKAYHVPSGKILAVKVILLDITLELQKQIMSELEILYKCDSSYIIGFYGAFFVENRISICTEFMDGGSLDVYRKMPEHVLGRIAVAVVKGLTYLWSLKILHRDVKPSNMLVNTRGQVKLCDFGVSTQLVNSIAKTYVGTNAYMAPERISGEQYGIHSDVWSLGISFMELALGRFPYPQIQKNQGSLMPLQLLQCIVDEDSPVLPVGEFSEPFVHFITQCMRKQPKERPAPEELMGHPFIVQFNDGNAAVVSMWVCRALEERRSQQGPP
# Chain of UniProt O43683 (whole entry, looked up): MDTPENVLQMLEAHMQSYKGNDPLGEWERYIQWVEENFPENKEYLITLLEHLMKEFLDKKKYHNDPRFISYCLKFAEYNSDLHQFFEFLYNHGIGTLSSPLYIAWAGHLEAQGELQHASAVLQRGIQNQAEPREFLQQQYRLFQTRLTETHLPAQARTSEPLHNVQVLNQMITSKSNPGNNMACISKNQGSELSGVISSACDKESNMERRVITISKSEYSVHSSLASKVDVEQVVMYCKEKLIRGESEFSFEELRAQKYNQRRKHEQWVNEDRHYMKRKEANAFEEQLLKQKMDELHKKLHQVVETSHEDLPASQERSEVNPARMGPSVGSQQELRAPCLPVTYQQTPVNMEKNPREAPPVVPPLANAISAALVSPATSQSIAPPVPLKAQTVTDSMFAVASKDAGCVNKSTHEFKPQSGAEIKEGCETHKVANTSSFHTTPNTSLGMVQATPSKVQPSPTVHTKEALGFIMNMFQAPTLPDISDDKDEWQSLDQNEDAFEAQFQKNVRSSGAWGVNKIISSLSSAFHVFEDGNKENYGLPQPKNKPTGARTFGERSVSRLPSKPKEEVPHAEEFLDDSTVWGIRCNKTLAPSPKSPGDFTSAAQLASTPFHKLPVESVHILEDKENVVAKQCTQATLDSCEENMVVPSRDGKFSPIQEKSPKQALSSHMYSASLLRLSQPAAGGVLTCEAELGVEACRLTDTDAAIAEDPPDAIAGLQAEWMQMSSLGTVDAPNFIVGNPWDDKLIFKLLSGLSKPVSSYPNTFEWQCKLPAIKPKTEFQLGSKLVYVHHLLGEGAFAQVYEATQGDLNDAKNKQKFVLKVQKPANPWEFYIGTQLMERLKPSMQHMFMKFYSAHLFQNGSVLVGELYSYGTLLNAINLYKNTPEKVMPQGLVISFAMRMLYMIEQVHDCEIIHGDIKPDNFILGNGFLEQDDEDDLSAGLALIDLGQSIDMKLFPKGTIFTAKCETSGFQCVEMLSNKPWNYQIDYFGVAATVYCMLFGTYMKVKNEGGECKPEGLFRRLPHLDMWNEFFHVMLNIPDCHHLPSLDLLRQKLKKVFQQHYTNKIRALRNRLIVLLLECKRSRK
# Chain of UniProt Q8IY84 (whole entry, looked up): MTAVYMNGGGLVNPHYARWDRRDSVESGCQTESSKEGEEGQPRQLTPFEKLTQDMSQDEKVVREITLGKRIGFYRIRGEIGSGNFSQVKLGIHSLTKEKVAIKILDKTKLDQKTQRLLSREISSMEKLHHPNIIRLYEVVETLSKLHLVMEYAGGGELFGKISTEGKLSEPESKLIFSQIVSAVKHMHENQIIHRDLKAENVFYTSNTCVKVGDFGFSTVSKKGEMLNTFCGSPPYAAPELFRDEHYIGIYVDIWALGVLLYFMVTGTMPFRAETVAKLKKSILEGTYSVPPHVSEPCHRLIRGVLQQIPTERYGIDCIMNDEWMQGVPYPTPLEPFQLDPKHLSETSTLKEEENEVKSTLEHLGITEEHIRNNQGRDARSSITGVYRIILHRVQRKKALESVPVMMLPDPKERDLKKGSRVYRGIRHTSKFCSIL

# Set 1
# SMILES: CCC(=O)N1CCN(c2nc(OC[C@@H]3CCCN3C)nc3c2CCN(c2cccc4cccc(Cl)c24)C3)C[C@@H]1CC#N
# Read-out: binding
# Action: competitor
# Technique: NanoBRET
# Cell line: HEK293
# KRAS G12D: GTPase KRas (KRAS, Homo sapiens, UniProt P01116, G12D)
target,concentration,normalized BRET
KRAS G12D,1.24 µM,94.7% and 96.4% and 92.9%
KRAS G12D,11.1 µM,86.1% and 96.8% and 92.5%
"GTPase KRas (KRAS, Homo sapiens, UniProt P01116, Q61L)",11.1 µM,27.9% and 30.3% and 29%
"GTPase KRas (KRAS, Homo sapiens, UniProt P01116, G13D)",1.24 µM,47.1% and 52.1% and 46.1%
KRAS G12D,45.7 nM,95.5% and 93.4% and 96%
KRAS G12D,15.2 nM,102% and 107% and 96.8%
"GTPase KRas (KRAS, Homo sapiens, UniProt P01116, Q61R)",3.7 µM,100% and 84.6% and 105%

# Set 2
# Target: Serine/threonine-protein kinase TAO1 (TAOK1, Homo sapiens, UniProt Q7L7X3)
# Chain of UniProt Q7L7X3 (whole entry, looked up): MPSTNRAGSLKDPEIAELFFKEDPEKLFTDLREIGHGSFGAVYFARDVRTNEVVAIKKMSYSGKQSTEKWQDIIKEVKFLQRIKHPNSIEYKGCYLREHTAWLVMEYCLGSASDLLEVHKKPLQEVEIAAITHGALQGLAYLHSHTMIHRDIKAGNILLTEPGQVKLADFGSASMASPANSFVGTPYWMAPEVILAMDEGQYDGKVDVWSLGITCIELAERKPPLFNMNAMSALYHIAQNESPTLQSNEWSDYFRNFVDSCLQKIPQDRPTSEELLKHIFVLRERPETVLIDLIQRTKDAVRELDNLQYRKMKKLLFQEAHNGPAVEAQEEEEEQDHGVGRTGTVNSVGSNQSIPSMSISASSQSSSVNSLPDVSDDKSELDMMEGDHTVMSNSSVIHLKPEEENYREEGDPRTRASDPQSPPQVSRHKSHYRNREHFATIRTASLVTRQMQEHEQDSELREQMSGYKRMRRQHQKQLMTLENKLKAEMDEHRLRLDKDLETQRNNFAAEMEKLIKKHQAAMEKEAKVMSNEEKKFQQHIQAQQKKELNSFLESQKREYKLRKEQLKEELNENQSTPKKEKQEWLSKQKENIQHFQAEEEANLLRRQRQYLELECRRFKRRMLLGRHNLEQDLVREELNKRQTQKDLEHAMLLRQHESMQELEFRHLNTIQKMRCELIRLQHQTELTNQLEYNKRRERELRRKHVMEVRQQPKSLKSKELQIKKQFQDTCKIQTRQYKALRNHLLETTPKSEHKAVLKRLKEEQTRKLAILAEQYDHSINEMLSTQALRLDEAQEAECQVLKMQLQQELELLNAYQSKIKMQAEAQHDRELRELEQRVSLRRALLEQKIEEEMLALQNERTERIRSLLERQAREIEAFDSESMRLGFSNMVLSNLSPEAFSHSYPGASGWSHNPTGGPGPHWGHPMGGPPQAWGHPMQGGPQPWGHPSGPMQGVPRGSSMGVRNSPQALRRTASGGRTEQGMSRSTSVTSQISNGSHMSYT
# Read-out: enzyme activity
# Action: inhibitor
# Concentration: 0.5 µM
# Reference: control
Structure (SMILES),remaining activity [%]
O=C1NC(=O)C(c2cn(CCCn3ccnc3)c3ccccc23)=C1Nc1ccccc1,100
Nc1ccc2ncnc(NCCc3ccc(Oc4ccccc4)cc3)c2c1,84.2
COc1cc2ncnc(Nc3ccc(Oc4ccccc4)cc3)c2cc1OC,105
NCCNc1ncc(C(N)=O)c(Nc2cccc(C(F)(F)F)c2)n1,90.6
C#Cc1cccc(Nc2ncnc3cc(OCCOC)c(OCCOC)cc23)c1,98.3
O=C(CCCc1ccc(-c2ccccc2F)cc1)Nc1ccc(O)cc1,91.4
O=C1NC(=O)C(c2cn(CCCO)c3ncccc23)=C1c1cnccn1,132
O=c1c2ccccc2[nH]c(=S)n1CCN1CCC(=C(c2ccc(F)cc2)c2ccc(F)cc2)CC1,101
N#CC(C#N)=C(N)/C(C#N)=C/c1ccc(O)cc1,93.2
COc1ccc(OC)c2c(=S)c3ccccc3[nH]c12,95.7
COc1ccc(CNC(=O)Nc2ncc([N+](=O)[O-])s2)cc1,101
Oc1ccc(-c2nc(-c3ccncc3)c(-c3ccc(F)cc3)[nH]2)cc1,98.5
OCC(O)CCON=C1C(c2c(O)[nH]c3ccccc23)=Nc2ccccc21 (stereo not drawn),98.2
Cc1ccc(Nc2nccc(N(C)c3ccc4c(C)n(C)nc4c3)n2)cc1S(N)(=O)=O,28.9
COc1ccc(C(=O)Nc2sc3c(c2C(N)=O)CCCC3)cc1OC,95.5
CC(C)[C@H](CO)Nc1nc(Nc2cc(N)cc(Cl)c2)c2ncn(C(C)C)c2n1,79.9

# Set 3
# Structure (SMILES): CN(C)c1ncnc(-c2ccc3nc(Nc4cc(CN5CCN(C(=O)CC(F)(F)F)CC5)ccn4)[nH]c3c2)c1Cl
# Read-out: cell-free assay
# Technique: competition with immobilised ligand
# Concentration: 1 µM
target,remaining binding [%]
"NTRK1 (Homo sapiens, UniProt P04629)",38
"STK26 (Homo sapiens, UniProt Q9P289)",91
"NIM1K (Homo sapiens, UniProt Q8IY84)",61
"NEK1 (Homo sapiens, UniProt Q96PY6)",88
"IRAK1 (Homo sapiens, UniProt P51617)",44
"EGFR (Homo sapiens, UniProt P00533)",100
"PIM3 (Homo sapiens, UniProt Q86V86)",100
"EPHB4 (Homo sapiens, UniProt P54760)",100
"PDPK1 (Homo sapiens, UniProt O15530)",100
"Tyrosine-protein kinase ABL1, phosphorylated (ABL1, Homo sapiens, UniProt P00519, F317L)",57
"MAPK15 (Homo sapiens, UniProt Q8TD08)",73

# Set 4
# SMILES: CN1CCN(C(=O)c2ccc(NC(=O)Nc3ccc(N(C)c4ccnc(Nc5ccc(CS(C)(=O)=O)cc5)n4)cc3)cc2)CC1
# Read-out: binding
# Concentration: 1 µM
target,technique,remaining binding
"BRSK2 (Homo sapiens, UniProt Q8IWQ3)",,100%
"MAP4K3 (Homo sapiens, UniProt Q8IVH8)",competition with immobilised ligand,25%
"STK32C (Homo sapiens, UniProt Q86UX6)",,100%
"MAP2K5 (Homo sapiens, UniProt Q13163)",competition with immobilised ligand,0.1%
"IRAK1 (Homo sapiens, UniProt P51617)",,58%
"BUB1 (Homo sapiens, UniProt O43683)",,46%
"Ribosomal protein S6 kinase alpha-5, N-terminal kinase domain (RPS6KA5, Homo sapiens, UniProt O75582)",competition with immobilised ligand,100%
"CDKL1 (Homo sapiens, UniProt Q00532)",,73%
